Published values of several laboratories.
Protocols differ between the studies behind these lines.
4'-phosphopantetheinyl transferase PptT: 4'-phosphopantetheinyl transferase PptT (Mycobacterium tuberculosis, UniProt O33336)
CNR2: Cannabinoid receptor 2 (CNR2, Homo sapiens, UniProt P34972)
OPRK1: Kappa-type opioid receptor (OPRK1, Homo sapiens, UniProt P41145)
HTR1E: 5-hydroxytryptamine receptor 1E (HTR1E, Homo sapiens, UniProt P28566)

Structure (SMILES) = O=c1c2cc(Cl)ccc2oc(=S)n1Cc1cccnc1; target = 4'-phosphopantetheinyl transferase PptT; test = enzyme activity, inhibitor, FP; quantity = IC50; result = 13 µM
Structure (SMILES) = COc1cc(CCNC(C)c2ccccc2O)c(OC)cc1C#N (single isomer, unassigned; (+)); target = HTR2B (Homo sapiens, UniProt P41595); test = G protein activation, agonist, BRET; quantity = EC50; result = 8.5 µM
Structure (SMILES) = COC(=O)/C=C/C(=O)N[C@@H]1CC[C@@]2(O)[C@H]3Cc4ccc(O)c5c4[C@@]2(CCN3CC2CC2)[C@H]1O5; target = Oprm1 (Rattus norvegicus, UniProt P33535, K303E); test = ligand displacement, radioligand; conditions = cell membranes; quantity = IC50; result = 0.0102 µM
Structure (SMILES) = CCCc1cc(O)c2c(c1)OC(C)(C)[C@@H]1CCC(C)=C[C@@H]21; target = CNR2; test = ligand displacement, radioligand; conditions = cell membranes; quantity = Ki; result = 0.047 µM
Structure (SMILES) = N#Cc1cncc(Cn2c(=S)[nH]c3ccc(Cl)cc3c2=O)c1; target = 4'-phosphopantetheinyl transferase PptT; test = enzyme activity, inhibitor, FP; quantity = IC50; result = 0.73 µM
Structure (SMILES) = O=C(N[C@H]1CC[C@@]2(O)[C@H]3Cc4ccc(O)c5c4[C@@]2(CCN3CC2CC2)[C@H]1O5)c1ccc([N+](=O)[O-])s1; target = OPRK1; test = ligand displacement, radioligand; conditions = cell membranes; quantity = Ki; result = 0.00249 µM
Structure (SMILES) = CN1CCC(C(=O)c2cccc(NC(=O)c3c(F)cc(F)cc3F)n2)CC1; target = HTR1E; test = G protein activation, agonist, BRET; quantity = EC50; result = 0.902 µM
Structure (SMILES) = CO[C@H]1O[C@H](CO)[C@@H](O)[C@H](O)[C@@H]1O; target = Concanavalin-A (Canavalia ensiformis, UniProt P02866); test = binding, ITC; quantity = Kd; result = 18 µM
Structure (SMILES) = O=c1c2cc(Cl)ccc2[nH]c(=S)n1Cc1ccc(-c2ccccc2)nc1; target = 4'-phosphopantetheinyl transferase PptT; test = enzyme activity, inhibitor, FP; quantity = IC50; result = 0.44 µM
Structure (SMILES) = Clc1cc(Cl)cc(N2CCNCC2)c1; target = CHRM1 (Homo sapiens, UniProt P11229); test = ligand displacement, radioligand; conditions = cell membranes; quantity = Ki; result = 6.31 µM
Structure (SMILES) = CNC(C)C(=O)c1ccccc1 (racemic); target = SLC6A3 (Homo sapiens, UniProt Q01959); test = calcium signal, agonist, fluorescence; quantity = EC50; result = 0.248 µM
Structure (SMILES) = Oc1ccc2c3c1O[C@H]1c4oc5ccccc5c4C[C@@]4(O)[C@@H](C2)N(CC2CC2)CC[C@]314; target = Trpm7 (Mus musculus, UniProt Q923J1, F924W); test = calcium signal, agonist; quantity = EC50; result = 57.4 µM
Structure (SMILES) = CC[C@@H](CO)NC(=O)[C@@H]1C=C2c3cccc4[nH]cc(c34)C[C@H]2N(C)C1; target = HTR1E; test = G protein activation, agonist, BRET; quantity = EC50; result = 0.017 µM
Structure (SMILES) = CC(Cc1cccc(Cl)c1)NC(C)(C)C (stereo not shown); target = Slc6a4 (Rattus norvegicus, UniProt P31652); test = transporter uptake, inhibitor, radiometric; quantity = IC50; result = 5.11 µM
Structure (SMILES) = O=c1c2cc(Cl)ccc2[nH]c(=S)n1Cc1cccnc1; target = 4'-phosphopantetheinyl transferase PptT; test = enzyme activity, inhibitor, FP; quantity = IC50; result = 0.37 µM
Structure (SMILES) = Cc1ccc(C(=O)N[C@H]2CC[C@@]3(O)[C@H]4Cc5ccc(O)c6c5[C@@]3(CCN4CC3CC3)[C@H]2O6)s1; target = OPRK1; test = ligand displacement, radioligand; conditions = cell membranes; quantity = Ki; result = 0.00169 µM
Structure (SMILES) = CN(C)Cc1cc2[nH]c(=S)n(Cc3cccnc3)c(=O)c2cc1Cl; target = 4'-phosphopantetheinyl transferase PptT; test = enzyme activity, inhibitor, FP; quantity = IC50; result = > 100 µM
Structure (SMILES) = [2H]c1c([2H])c([C@]2([2H])CCCN2C(=O)C(C)(C)Oc2ccc3cn[nH]c3c2)c([2H])c([2H])c1C([2H])([2H])[2H]; target = MYLK (Homo sapiens, UniProt Q15746); test = binding, competition with immobilised ligand; conditions = 1 µM; quantity = remaining binding; result = 77%
Structure (SMILES) = O=c1c2cc(Cl)ccc2[nH]c(=S)n1Cc1ccccc1; target = 4'-phosphopantetheinyl transferase PptT; test = enzyme activity, inhibitor, FP; quantity = IC50; result = > 100 µM
Structure (SMILES) = O=C(N[C@H]1CC[C@@]2(O)[C@H]3Cc4ccc(O)c5c4[C@@]2(CCN3CC2CC2)[C@H]1O5)c1ccc(Br)s1; target = OPRK1; test = ligand displacement, radioligand; conditions = cell membranes; quantity = Ki; result = 0.00124 µM
Structure (SMILES) = CC(=O)OCc1cc2[nH]c(=S)n(Cc3cccnc3)c(=O)c2cc1Cl; target = 4'-phosphopantetheinyl transferase PptT; test = enzyme activity, inhibitor, FP; quantity = IC50; result = > 100 µM
Structure (SMILES) = C[C@@]12CC[C@H](O)C[C@@H]1CC[C@H]1[C@H]2CC[C@@]2(C)C(=O)CC[C@H]12; target = CNR2; test = cAMP, agonist; quantity = EC50; result = 2.86 µM

Some of these lines once more:
Structure (SMILES) = Oc1ccc2c3c1O[C@H]1c4oc5ccccc5c4C[C@@]4(O)[C@@H](C2)N(CC2CC2)CC[C@]314; target = Trpm7 (Mus musculus, UniProt Q923J1, F924W); test = calcium signal, agonist; quantity = EC50; result = 57.4 µM
Structure (SMILES) = C[C@@]12CC[C@H](O)C[C@@H]1CC[C@H]1[C@H]2CC[C@@]2(C)C(=O)CC[C@H]12; target = CNR2; test = cAMP, agonist; quantity = EC50; result = 2.86 µM
Structure (SMILES) = COC(=O)/C=C/C(=O)N[C@@H]1CC[C@@]2(O)[C@H]3Cc4ccc(O)c5c4[C@@]2(CCN3CC2CC2)[C@H]1O5; target = Oprm1 (Rattus norvegicus, UniProt P33535, K303E); test = ligand displacement, radioligand; conditions = cell membranes; quantity = IC50; result = 0.0102 µM
